Experimental data of several laboratories.
Protocols differ between the studies behind these lines. Numbers after ± are the reported error. Converted amounts (≈) assume the structure as drawn.

SMILES | test | test system | setting | scale | endpoint | value
Nc1nc2c(nc([N+](=O)[O-])n2[C@@H]2O[C@H](CO)[C@@H](O)[C@H]2O)c(=O)[nH]1 | depurination, RP-HPLC | citrate-phosphate buffer 0.5 mM | 90 min, pH 7, 37 °C |  | nucleoside remaining fraction | 0.894
CCOc1c([C@H](C)n2nc(C)c3c(N)ncnc32)cc(Cl)c(F)c1[C@@H]1CNC(=O)C1 |  | patients, monotherapy | oral, 10 mg once daily, cycle 1 day 1 |  | Tmax median | 1 h
COc1cc(Nc2ncc3c(n2)-c2ccc(Cl)cc2C(c2c(F)cccc2OC)=NC3)ccc1C(=O)O |  | patients | oral, dose not given, grade 2, any attribution, with: pembrolizumab |  | decreased neutrophil count incidence | 13%
C1=C/COCc2cc(ccc2OCCN2CCCC2)Nc2nccc(n2)-c2cccc(c2)COC/1 |  | rat plasma | 1200 ng/mL, three freeze-thaw cycles | baseline: nominal concentration | stability relative error | 5.42%
CCOCc1nc(O)c(-c2nnc(Cc3ccc(Cl)cn3)o2)c(O)c1-c1c(OC)cccc1OC |  | rat, anaesthetised, cannulated, plasma | intravenous infusion, 100 µg/kg/min, 30 min after infusion stop, washout |  | plasma concentration | 10.7 µM
N#CCC1CCN(c2nc(Nc3ccc(N4CCC(O)CC4)cc3)c3c(=O)[nH]ncc3n2)CC1 |  | human, plasma | oral, 40 mg once daily, day 1 |  | t1/2 | 9.1 h
CC(C)(C(=O)N1CCOc2c(C#N)cncc2C1)C(F)F |  | human, both sexes | oral, 20 mg single dose |  | subjects with contact dermatitis TEAE | 0%
O=C1c2ccncc2C(=O)c2c1[nH]c1ccccc21 |  | Sprague-Dawley rat, male, plasma | intravenous, 5 mg/kg |  | MRT | 10.4 ± 6.5 h
CN1CCN(C(=O)CN(C)S(=O)(=O)c2ccc3ccccc3c2)CC1 |  | aqueous buffer | pH 7.4 |  | thermodynamic solubility | 2690 µM (≈ 971 µg/mL)
O=C(Nc1cnccc1Cl)N1CCN(Cc2ccc3c(c2)OC(F)(F)O3)CC1 | multiple ascending dose | elderly men and women | 100 mg, treatment-emergent adverse events |  | back pain incidence | 33.3%
CCCOc1ccc(NC(=O)CN2CCN(C)CC2)cc1-c1nc(CC)c(CC)c(=O)[nH]1 |  | healthy Chinese men | 10 mg, supine or semi-supine, with: placebo |  | AUEC(0-4 h) systolic BP | 2.65 ± 17.4 h·mmHg
CCCCCNC(=O)N1CCC(CN(Cc2ccc(Cl)cc2)Cc2ccc([N+](=O)[O-])s2)C1 (centres unmarked) |  | C57BL/6 mice | 100 mg/kg twice daily, 7 days |  | haematocrit | 36.8 ± 2.7%
CCCc1ccc(-c2ccc(-c3cc(F)c(F)c(F)c3)c(F)c2)cc1 |  | rat, placenta | 10 ng/mL in perfusate, low dose, mixture of 21 LCMs |  | median placental accumulation | 0.86 ng/g
C=CC(=O)N1CCC[C@@H](n2nc(-c3ccc(Oc4ccccc4)cc3)c3c(N)ncnc32)C1 |  |  |  |  | bulk density | 0.59 g/mL
c1csc(CNc2cc[nH]n2)c1 | DNA damage, alkaline comet | Hsd:ICR(CD-1) mice, female, liver | oral gavage, 1000 mg/kg/day, 3 days |  | tail DNA (mean) | 2.4%
Cn1cc(Nc2nccc(-c3ccc4c(c3)CN(C3COC3)CC[C@H]4NC(=O)c3cn(C(C)(C)C)nn3)n2)cn1 |  | human, whole blood | 300 mg twice daily, day 14 | baseline: pre-dose baseline | NKT cell count change | 0.06%
COc1ccc(Nc2nc(-c3ccccn3)nc3ccccc23)cc1 |  | Japanese Pharmacopoeia disintegration test solution 2 | pH 6.8 |  | kinetic solubility | 8 µg/mL (≈ 24.4 µM)
Cc1nn(CC(F)(F)F)cc1Nc1nccc(NCc2ccc(S(N)(=O)=O)cc2)n1 | PAMPA | PBS | 5 h, pH 7.4 |  | PAMPA permeability | not detected
O=C(Nc1nc2cccc(-c3ccc(CN4CCS(=O)(=O)CC4)cc3)n2n1)C1CC1 | refers to: infections and infestations | human rheumatoid arthritis patients | oral, 300 mg once daily, 4 weeks, regardless of relatedness |  | treatment-emergent adverse events | 5%
COc1ccc2c(=O)n(C)c(-c3ccccc3)nc2c1 |  | Sprague-Dawley rat, male, brain | oral, 30 mg/kg, 0.5 h | baseline: brain over plasma | tissue/plasma ratio | 0.63

Repeated from above:
SMILES | test | test system | setting | scale | endpoint | value
COc1cc(Nc2ncc3c(n2)-c2ccc(Cl)cc2C(c2c(F)cccc2OC)=NC3)ccc1C(=O)O |  | patients | oral, dose not given, grade 2, any attribution, with: pembrolizumab |  | decreased neutrophil count incidence | 13%
Cc1nn(CC(F)(F)F)cc1Nc1nccc(NCc2ccc(S(N)(=O)=O)cc2)n1 | PAMPA | PBS | 5 h, pH 7.4 |  | PAMPA permeability | not detected
